Measurements from different studies.
Each line is one published result; not all experiments were run side by side.

`Fc1ccc([C@@H]2CCNC[C@H]2COc2ccc3c(c2)OCO3)cc1` gave a plasma concentration of 45.2 ng/mL (healthy human subjects; oral, 20 mg once daily, 6 h post-dose, day 13).
For `CN1Cc2c(Cl)cc(Cl)cc2[C@H](c2cccc(S(=O)(=O)NCCOCCOCCNC(=O)NCCCCNC(=O)NCCOCCOCCNS(=O)(=O)c3cccc([C@@H]4CN(C)Cc5c(Cl)cc(Cl)cc54)c3)c2)C1`, the plasma concentration was less than 0.5 ng/mL (healthy human volunteers, plasma; oral, 15 mg twice daily, day 5, all below quantitation limit).
For `CNC(=O)c1cc(Oc2ccc(NC(=O)Nc3ccc(Cl)c(C(F)(F)F)c3)c(F)c2)ccn1`, plasma concentration read “no effect” (human; dose not given, with: chemotherapy).
`CCCCCCCCCCCCCCC[C@H](O)[C@@H](N)CO` gave a plasma concentration of no less than 5000 nM (human patients; intravenous, 750 to 930 mg/m2, up to 4 h).
`Cc1ccccc1C(=O)Nc1ccc(C(=O)N2CCCC(O)c3cc(Cl)ccc32)c(C)c1` (stereo not drawn) gave a plasma concentration of 422 ng/mL (healthy humans, plasma; oral, 90 mg, 2 h postdose, day 4, with: rosuvastatin).
`O=C(c1nc2n(n1)[C@H](c1ccccc1)C[C@@H]2F)C1CC1` has a plasma concentration of 210 ng/mL (humans, plasma; oral, 75 mg single dose, 24 h, high-fat meal).
`C=C[C@@H]1C[C@]1(NC(=O)[C@@H]1C[C@@H]2CN1C(=O)[C@H](C(C)(C)C)NC(=O)O[C@@H]1C[C@H]1CCCCCc1nc3ccc(OC)cc3nc1O2)C(=O)NS(=O)(=O)C1CC1` has a plasma concentration of 6 nM (healthy adult humans, plasma; oral, 100 mg, 24 h, fixed-dose combination with elbasvir 50 mg, fasted).
With `CC(C)(C)NC(=O)N[C@H](C(=O)N1C[C@H]2[C@@H]([C@H]1C(=O)NC(CC1CCC1)C(=O)C(N)=O)C2(C)C)C(C)(C)C` (stereo partly drawn) the plasma concentration was 80.7 ng/mL (human; oral, 800 mg three times daily, 8 h, day 10, geometric mean, with: maraviroc 150 mg twice daily).
For `CNc1nc(Nc2ccc(-n3cnc(C)n3)c(OC)c2)nc2c1CC[C@H]2c1ccc(F)cc1`, the plasma concentration was 308 ng/mL (human; oral, 100 mg once daily, 24 h, day 14, multiple ascending dose, geometric mean).
With `CC[C@H](C)[C@H](NC(=O)[C@H](CO)NC(=O)[C@H](Cc1ccc(O)cc1)NC(=O)[C@H](CC(=O)O)NC(=O)[C@H](CO)NC(=O)[C@@H](NC(=O)[C@H](Cc1ccccc1)NC(=O)[C@@H](NC(=O)CNC(=O)[C@H](CCC(=O)O)NC(=O)[C@H](C)NC(=O)[C@@H](N)Cc1ccc(O)cc1)[C@@H](C)O)[C@@H](C)CC)C(=O)N[C@@H](C)C(=O)N[C@@H](CCSC)C(=O)N[C@@H](CC(=O)O)C(=O)N[C@@H](CCCCN)C(=O)N[C@H](C(=O)N[C@@H](Cc1c[nH]cn1)C(=O)N[C@@H](CCC(N)=O)C(=O)N[C@@H](CCC(N)=O)C(=O)N[C@@H](CC(=O)O)C(=O)N[C@@H](Cc1ccccc1)C(=O)N[C@H](C(=O)N[C@@H](CC(N)=O)C(=O)N[C@@H](Cc1c[nH]c2ccccc12)C(=O)N[C@@H](CC(C)C)C(=O)N[C@@H](CC(C)C)C(=O)N[C@@H](C)C(=O)N[C@@H](CCC(N)=O)C(=O)N[C@@H](CCCCN)C(=O)NCC(=O)N[C@@H](CCCCN)C(=O)N[C@@H](CCCCN)C(=O)N[C@@H](CC(N)=O)C(=O)N[C@@H](CC(=O)O)C(=O)N[C@@H](Cc1c[nH]c2ccccc12)C(=O)N[C@@H](CCCCN)C(=O)N[C@@H](Cc1c[nH]cn1)C(=O)N[C@@H](CC(N)=O)C(=O)N[C@H](C(=O)N[C@H](C(=O)N[C@@H](CCC(N)=O)C(=O)O)[C@@H](C)O)[C@@H](C)CC)C(C)C)[C@@H](C)CC` the plasma concentration was roughly 0.4 nM (ELISA; human, plasma; intravenous, 4.0 pmol/kg/min primed-continuous, 10 to 240 min, steady state, immunoreactive total).
For `C[C@]12C=CC(=O)C=C1CC[C@@H]1[C@@H]2[C@@H](O)C[C@@]2(C)[C@H]1CC[C@]2(O)C(=O)CO`, the plasma concentration was 153 nM (human castration-resistant prostate cancer, plasma; 10 mg daily, 48 days, median, with: abiraterone acetate 1000 mg daily).
`CC(O)CO` (stereo not drawn) gave a plasma concentration of 62000 ng/mL (GC-FID; human, plasma; dose not given, 30 min, after liquid APAP preparation).

Excerpt of the above:
`Cc1ccccc1C(=O)Nc1ccc(C(=O)N2CCCC(O)c3cc(Cl)ccc32)c(C)c1` (stereo not drawn) gave a plasma concentration of 422 ng/mL (healthy humans, plasma; oral, 90 mg, 2 h postdose, day 4, with: rosuvastatin).
